{"sequences": {"note": "The chains behind the UniProt entries cited, without tags or fusion partners.", "UniProt P23975, whole entry": "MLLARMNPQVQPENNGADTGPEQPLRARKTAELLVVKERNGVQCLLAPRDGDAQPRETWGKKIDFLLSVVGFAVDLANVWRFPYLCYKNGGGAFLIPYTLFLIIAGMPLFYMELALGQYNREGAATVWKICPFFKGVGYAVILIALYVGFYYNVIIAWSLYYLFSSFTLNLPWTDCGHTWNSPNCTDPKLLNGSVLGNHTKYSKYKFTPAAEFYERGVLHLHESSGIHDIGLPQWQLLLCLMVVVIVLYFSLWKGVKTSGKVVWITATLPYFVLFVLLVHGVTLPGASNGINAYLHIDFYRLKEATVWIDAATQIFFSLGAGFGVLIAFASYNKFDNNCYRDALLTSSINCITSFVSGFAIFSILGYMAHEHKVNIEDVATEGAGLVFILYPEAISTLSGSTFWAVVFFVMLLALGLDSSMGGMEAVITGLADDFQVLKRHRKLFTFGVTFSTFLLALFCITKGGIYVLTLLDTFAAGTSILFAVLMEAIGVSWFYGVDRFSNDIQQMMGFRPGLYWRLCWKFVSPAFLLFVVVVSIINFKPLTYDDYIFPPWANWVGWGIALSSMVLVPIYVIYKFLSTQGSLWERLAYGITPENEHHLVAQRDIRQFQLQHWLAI", "UniProt Q15375, whole entry, looked up": "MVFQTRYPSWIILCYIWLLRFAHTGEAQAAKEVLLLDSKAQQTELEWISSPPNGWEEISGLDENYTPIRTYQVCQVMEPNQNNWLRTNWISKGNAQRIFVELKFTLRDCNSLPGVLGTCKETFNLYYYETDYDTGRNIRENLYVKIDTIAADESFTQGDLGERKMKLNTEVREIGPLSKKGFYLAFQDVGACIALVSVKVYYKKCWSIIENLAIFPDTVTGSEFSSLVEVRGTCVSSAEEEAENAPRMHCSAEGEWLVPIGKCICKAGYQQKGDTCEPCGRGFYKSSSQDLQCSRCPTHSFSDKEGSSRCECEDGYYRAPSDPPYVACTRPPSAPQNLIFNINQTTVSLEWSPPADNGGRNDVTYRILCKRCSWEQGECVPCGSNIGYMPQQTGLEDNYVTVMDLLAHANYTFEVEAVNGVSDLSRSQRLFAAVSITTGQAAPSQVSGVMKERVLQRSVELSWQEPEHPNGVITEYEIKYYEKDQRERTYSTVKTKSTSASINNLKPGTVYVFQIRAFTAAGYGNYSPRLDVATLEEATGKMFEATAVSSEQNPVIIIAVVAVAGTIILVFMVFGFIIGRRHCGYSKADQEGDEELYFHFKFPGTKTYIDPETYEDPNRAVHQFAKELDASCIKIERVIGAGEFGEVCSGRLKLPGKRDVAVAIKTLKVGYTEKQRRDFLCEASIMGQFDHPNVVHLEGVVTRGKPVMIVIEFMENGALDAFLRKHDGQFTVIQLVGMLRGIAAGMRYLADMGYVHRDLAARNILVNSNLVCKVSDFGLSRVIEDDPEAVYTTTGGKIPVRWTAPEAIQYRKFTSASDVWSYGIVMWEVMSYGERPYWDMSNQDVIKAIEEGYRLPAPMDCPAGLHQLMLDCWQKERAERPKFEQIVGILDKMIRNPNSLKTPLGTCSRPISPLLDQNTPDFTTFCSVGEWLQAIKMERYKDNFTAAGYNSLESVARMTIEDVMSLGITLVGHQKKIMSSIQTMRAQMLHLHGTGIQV"}, "data": "Experimental data from different studies", "note": "Each line is one published result; not all experiments were run side by side."}
{"SMILES": "Oc1ccc(C2NCCc3c2[nH]c2ccc(Cl)cc32)cc1O (stereo not shown)", "target or system": "dengue virus 4", "test": "viral replication, plaque reduction", "system": "BHK-21, TVP360", "measurement": "IC50", "result": "< 1 µM"}
{"SMILES": "CCc1nc(N)nc(N)c1C#C[C@H](C)c1cc(OC)cc(-c2ccc(C(=O)O)cc2)c1", "target or system": "Staphylococcus aureus", "system": "MRSA isolate HH 714", "measurement": "MIC", "result": "5 µg/mL"}
{"SMILES": "CC(C)Cc1nnc2c(C(=O)NC3c4ccccc4-c4ccccc43)cccn12", "target or system": "Escherichia coli", "test": "broth microdilution", "system": "D21f2tolC rpoB D516V", "measurement": "MIC", "result": "8 µg/mL"}
{"SMILES": "COC(=O)c1ccc(Cl)cc1NC(=O)CSc1ncc(S(=O)(=O)c2ccc(Br)cc2)c(=O)[nH]1", "target or system": "dengue virus 2", "test": "viral replication, single-cycle viral yield", "system": "New Guinea C", "conditions": "5 µM", "measurement": "inhibition", "result": "> 90%"}
{"SMILES": "CSc1nc(Cl)cc(Sc2nnc(-c3cc(C(F)(F)F)cc(C(F)(F)F)c3)[nH]2)n1", "target or system": "Shigella flexneri", "system": "ATCC 12022", "conditions": "together with: PMBN 25 µg/mL", "measurement": "MIC", "result": "2.2 µg/mL"}
{"SMILES": "COCOc1ccc2nc3ccc(=O)c(I)c-3oc2c1", "target or system": "Mycobacterium tuberculosis", "system": "mc2 6206 bedaquiline-resistant MmpL5 regulator mutant", "conditions": "7 days", "measurement": "MIC90", "result": "58 µM"}
{"SMILES": "CCN1CCN(Cc2ccc(NC(=O)c3ccc(C)c(/C=C/c4cnc5[nH]ccc5c4OC)c3)cc2C(F)(F)F)CC1", "target or system": "HIP1-PDGFRB fusion", "test": "kinase-CDC37 interaction, cell-based kinome screen", "conditions": "5 µM", "how to read": "reference: vehicle", "measurement": "log2 fold change", "result": 0.266}
{"SMILES": "CCCN1CCN(c2ccc3c(c2)C2CC3CCN2C(=O)OCc2ccccc2)CC1 (stereo not shown)", "target or system": "SLC6A2 (Homo sapiens, UniProt P23975)", "test": "binding, radioligand binding", "measurement": "Ki", "result": "3.85 µM"}
{"SMILES": "CCc1nc(N)nc(N)c1C#CCc1cc(OC)cc(-c2ccc(C(=O)O)cc2)c1", "target or system": "Staphylococcus aureus", "system": "MRSA isolate UCH 1", "measurement": "MIC", "result": "2.5 µg/mL"}
{"SMILES": "CC#C/C(=N\\OC[C@H]1COCCN1)c1ccc2ncnc(Nc3ccc(OCc4cccc(F)c4)c(Cl)c3)c2c1", "target or system": "EPHA7 (Homo sapiens, UniProt Q15375)", "test": "kinase activity", "conditions": "10 µM", "measurement": "inhibition", "result": "6.3%"}
{"SMILES": "COc1ccc(Nc2cc(C)c3cc(NC(=O)c4ccc(N(C)C)cc4)ccc3n2)cc1", "target or system": "dengue virus 2", "test": "viral replication, plaque reduction", "system": "BHK-21, NGC", "measurement": "IC50", "result": "1 to 10 µM"}
{"SMILES": "CCc1nc(N)nc(N)c1C#CCc1cc(OC)c(OC)c(-c2ccncc2)c1", "target or system": "Staphylococcus aureus", "system": "MRSA isolate UCH 121", "measurement": "MIC", "result": "0.625 µg/mL"}
{"SMILES": "CCCCCCC1c2ccc(O)cc2Oc2cc(O)ccc21", "target or system": "Klebsiella pneumoniae", "system": "BARB 105", "measurement": "MIC", "result": "> 373 µg/mL"}
{"note": "A few entries again:"}
{"SMILES": "CCc1nc(N)nc(N)c1C#CCc1cc(OC)c(OC)c(-c2ccncc2)c1", "target or system": "Staphylococcus aureus", "system": "MRSA isolate UCH 121", "measurement": "MIC", "result": "0.625 µg/mL"}
